Assay results from different studies.
Protocols differ between the studies behind these lines. Numbers after ± are the reported error.

| SMILES | test | system | conditions | how to read | measurement | result |
| --- | --- | --- | --- | --- | --- | --- |
| CC(C)C(=O)O[C@H]1[C@H](C)OC(=O)[C@@H]1Cc1ccccc1 | – | Staffordshire loam sediment, aerobic dark | 20 °C | – | DT50 water | 0.72 days |
| CNC(=O)c1ccc(-c2cnc3ncc(Cc4ccc5ncccc5c4)n3n2)cc1F | – | Japanese patients | oral, 400 mg, grade 3/4 | – | γGT increased dose reduction/interruption | 0% |
| Cc1cc(C)c(CNC(=O)c2cc(Cl)c3c(c2C)O[C@@](C)([C@H]2CC[C@H](N(C)C)CC2)O3)c(=O)[nH]1 | – | human relapsed/refractory NHL | oral, 200 mg once daily, onset day 1 to 14 | – | acute respiratory failure grade ≥3 | 0% |
| CC[C@H](C)CCCCC(=O)N[C@@H](CCN)C(=O)N[C@H](C(=O)N[C@@H](CCN)C(=O)N[C@H]1CCNC(=O)[C@H]([C@@H](C)O)NC(=O)[C@H](CCN)NC(=O)[C@H](CCN)NC(=O)[C@H](CC(C)C)NC(=O)[C@@H](Cc2ccccc2)NC(=O)[C@H](CCN)NC1=O)[C@@H](C)O | – | long-term haemodialysis patients, plasma | IV, 0.75 mg/kg | baseline: healthy subjects | clearance reduction | 42% |
| COc1cc(C(=O)N2CCC3(CC2)CC(=O)c2c(cnn2C(C)C)C3)cc(-c2ccc(C(=O)O)cc2)n1 | measured: HDL cholesterol | human, fasting serum | 30 mg every 12 h, day 13, adjusted geometric mean | baseline: baseline | percentage change from baseline | -11.2% |
| COc1cccnc1-c1nc2ccccn2c1N(C)c1ccc(F)cc1 | – | peritoneal macrophages, Swiss mice | 5 days, 5% fetal calf serum | – | CC50 | 7.94 µM |
| CC(C)(C(=O)N1CCOc2c(C#N)cncc2C1)C(F)F | measured: Insomnia | human | oral, 20 mg twice daily, 14 days, multiple ascending dose | – | subjects with adverse event | 0% |
| CCN1/C(=C/C(C)=O)Sc2ccc(F)cc21 | – | cynomolgus monkey | oral, 100 mg/kg, 6 h post-dose | – | diastolic blood pressure | 79 ± 6 mmHg |
| Cc1cn([C@H]2C[C@H](N=[N+]=[N-])[C@@H](CO)O2)c(=O)[nH]c1=O | – | human, both sexes, PBMCs | oral, 600 mg, single dose | – | MRT(0-t) | 4.94 ± 19.3 h |
| NC[C@@]1(CC(=O)O)[C@@H]2CC[C@H]3C[C@@H]2[C@@H]1C3 | – | human, moderate renal impairment, urine | oral, 20 mg single dose | – | cumulative amount excreted | 14.1 ± 1.28 mg |
| Cc1cc(NC2CCN(C(=O)OC3CCN(C(=O)/C=C/CN(C)C)C3)CC2)n2ncc(C(C)C)c2n1 (stereo not drawn) | CTCAE v4.0, measured: Fatigue | patients with advanced solid tumours | oral, dose not given, TIW, grade 3 or higher | – | patients with TEAE | 0% |
| CNCc1ccc(-c2[nH]c3cc(F)cc4c3c2CCNC4=O)cc1 | – | human patients | oral, 600 mg twice daily, grade 2 | – | malignant neoplasm progression incidence | 0% |
| Cc1ccc([C@@H]2O[C@H](CO)[C@@H](O)[C@H](O)[C@H]2O)cc1Cc1ccc(-c2ccc(F)cc2)s1 | – | Japanese type 2 diabetes patients | 200 mg, day 18, 24 h urine collection | baseline: baseline | urinary chloride excretion change | -22.1 mEq |
| CCCCCN(C)CCC(O)(P(=O)(O)O)P(=O)(O)OP(=O)(O)OC[C@H]1O[C@@H](n2ccc(N)nc2=O)C(F)(F)[C@@H]1O (stereo partly drawn) | – | human serum | concentration not given, 37 °C, 50% serum | – | hydrolysis half-life | 34.7 h |
| CCCn1cc(C)c2c(=O)[nH]c(-c3cc(S(=O)(=O)N4CCN(CC)CC4)ccc3OCC)nc21 | – | human | concentration not given, treatment-emergent adverse event | – | heart rate increased | 5.6% |
| Cc1ccc(S(=O)(=NC(=O)C(C)(C)C)c2ccccc2)cc1 (stereo not drawn) | – | human liver microsomes | – | baseline: hepatic blood flow | metabolic stability | 61% |
| Cc1cccc(CNC(=O)c2cn(CCNC(=O)c3ccccc3Sc3c([N+](=O)[O-])ncn3C)c3cc4c(cc3c2=O)OC(F)(F)O4)n1 | – | Sprague-Dawley rat, male, plasma | intramuscular, 3 mg/kg of parent drug | – | bioavailability | 62% |
| O=C(Nc1c2c(cc3c1CCC3)CCC2)NS(=O)(=O)/C=C/c1nccs1 | – | mouse liver microsomes | 1 µM, 30 min, with: NADPH | – | metabolized fraction | 3.68% |

Excerpt of the above:
| SMILES | test | system | conditions | how to read | measurement | result |
| --- | --- | --- | --- | --- | --- | --- |
| Cc1cccc(CNC(=O)c2cn(CCNC(=O)c3ccccc3Sc3c([N+](=O)[O-])ncn3C)c3cc4c(cc3c2=O)OC(F)(F)O4)n1 | – | Sprague-Dawley rat, male, plasma | intramuscular, 3 mg/kg of parent drug | – | bioavailability | 62% |
| COc1cc(C(=O)N2CCC3(CC2)CC(=O)c2c(cnn2C(C)C)C3)cc(-c2ccc(C(=O)O)cc2)n1 | measured: HDL cholesterol | human, fasting serum | 30 mg every 12 h, day 13, adjusted geometric mean | baseline: baseline | percentage change from baseline | -11.2% |
